Experimental data pooled from the literature.
Protocols differ between the studies behind these lines. Several values in a cell are separate wells, animals, samples, runs or records. ± gives the spread as reported.

SMILES	target or system	assay	test system	setting	how to read	measurement	result
Cc1cc2cc(C(=O)N(Cc3ccc(C(F)(F)F)cn3)[C@H](C)c3ncccn3)ccc2nc1N		ELISA, item: SDMA	mouse, HCT-116 MTAP-deleted xenograft, tumour	oral, 100 mg/kg once daily, 14 doses, 4 h after last dose	relative to: vehicle	inhibition	88%
COc1ccc(C(=O)CCc2cc(C(CCc3ccc(O)cc3OC)c3ccc(O)cc3)c(O)cc2OC)cc1 (racemic)			human blood	10 µM, together with: A23187		arachidonic acid level	102000 ± 15400 pg/mL
CC(C)OC(=O)[C@H](CO)NCc1cc(Cl)c(OCc2cccc(-c3ccccc3)c2Br)cc1OCc1cccnc1			hPD-L1 MC-38 tumour, humanised hPD-1 C57BL/6 mouse	oral, 5 mg/kg × 21, day 1, baseline		tumour volume	126 ± 14.9 mm³
CC(=O)[O-].O.[Cu+2].[O-]c1ccc(Br)cc1C=NCCN1CCOCC1		hydroxyl radical scavenging		120 µM		inhibition	33.4%
COc1ccccc1-c1ccncc1C(=O)Nc1nnc(OCc2ccc(Cl)cc2)s1			Brca1 Δ11/Δ11 Polq-/- MEFs, Mus musculus	20 µM, average of runs	relative to: 0 µM	colony survival	15.4%
COC1OC(C)C(OS(=O)(=O)O)C(OC2OC(C)C(OS(=O)(=O)O)C(OC3OC(C)C(OS(=O)(=O)O)C(OC4OC(C)C(OS(=O)(=O)O)C(OC5OC(C)C(OS(=O)(=O)O)C(OC6OC(C)C(OS(=O)(=O)O)C(OC7OC(C)C(OS(=O)(=O)O)C(OC8OC(C)C(OS(=O)(=O)O)C(OC9OC(C)C(OS(=O)(=O)O)C(OC%10OC(C)C(OS(=O)(=O)O)C(OS(=O)(=O)O)C%10O)C9O)C8O)C7O)C6O)C5O)C4O)C3O)C2O)C1O (centres unmarked)			human plasma	128 µg/mL	relative to: control	APTT prolongation	1.3 fold
O=[N+]([O-])c1cc(Br)cc([N+](=O)[O-])c1NS(=O)(=O)c1ccc(Br)cc1		RNA-seq, item: AT1G02920	Arabidopsis thaliana Col seedlings	dose not given	relative to: DMSO	log2 fold change	2.33
Cc1ccc(NC(=O)CCC(=O)N/N=C/c2ccc([N+](=O)[O-])o2)cc1C	Trypanosoma cruzi	reporter mRNA translation, inhibitor, item: capped polyadenylated Renilla luciferase mRNA	cell-free extract	concentration not given	relative to: control RNA	relative translation	109%
COC1OC(C)C(OC2OC(C)C(OS(=O)(=O)O)C(OC3OC(C)C(OC4OC(C)C(OS(=O)(=O)O)C(OC5OC(C)C(OC6OC(C)C(OS(=O)(=O)O)C(OC7OC(C)C(OC8OC(C)C(OS(=O)(=O)O)C(OS(=O)(=O)O)C8O)C(OS(=O)(=O)O)C7O)C6O)C(OS(=O)(=O)O)C5O)C4O)C(OS(=O)(=O)O)C3O)C2O)C(OS(=O)(=O)O)C1O (centres unmarked)			human plasma	128 µg/mL	relative to: control	APTT prolongation	1.3 fold
COC1CN([C@H]2CC[C@H]([C@@]3(C)Oc4c(Cl)cc(C(=O)NCc5c(SC)cc(C)[nH]c5=O)c(C)c4O3)CC2)C1		RNA-seq, item: CHST2	human, whole blood	dose not given, 24 h	relative to: pretreatment baseline	log2 fold change	1.66
CC(CCC(=O)NCc1ccc(C(=O)NO)cc1)C1CCC2C3C(O)CC4CC(O)CCC4(C)C3CCC12C (centres unmarked)		item: GUDCA	PCK rat (Pkhd1 mutant), bile	oral gavage, dose not given, 5 months	relative to: total bile acids	relative abundance	2.18%
CCCCNC(CCCC)CSS(=O)(=O)O (centres unmarked)			Swiss Webster mice, Schistosoma mansoni infected	100 mg/kg	relative to: vehicle control	spleen weight decrease	20%
COC1OC(C)C(OC2OC(C)C(OS(=O)(=O)O)C(OS(=O)(=O)O)C2OS(=O)(=O)O)C(OS(=O)(=O)O)C1OS(=O)(=O)O (centres unmarked)			human plasma	128 µg/mL	relative to: control	APTT prolongation	1.4 fold
COc1ccc2c(c1)C(=O)C(=C[O-])C2.[Na+]		HPLC-MS		pH 10.2, together with: 50 mM N-α-acetyl-lysine		pseudo-first-order rate constant	0 h⁻¹
COC1OC(C)C(OC2OC(C)C(O)C(OS(=O)(=O)O)C2OS(=O)(=O)O)C(OS(=O)(=O)O)C1OS(=O)(=O)O (centres unmarked)			human plasma	128 µg/mL	relative to: control	APTT prolongation	1.1 fold
O=S(=O)(NCc1ccncc1)c1ccc(C2CCCCC2)cc1		bulk RNA sequencing	CK-p25 mice, female, microglia	intraperitoneal, 0.3 mg/kg daily for 2 weeks, 336 h, genes, PU.1 target, upregulated		PU.1 target genes reduced	8.5%
COc1ccc2c(c1)CN(C(=O)CCN1CCC(Cc3ccccc3)CC1)CCS2			paroxysmal AF patients	oral, 540 mg, 2 h		AF conversion rate	50%
CCCCCc1ccc(S(=O)(=O)N2CC2C(=O)OC)cc1 (centres unmarked)			mouse, Lewis lung carcinoma	intraperitoneal, 5 mg/kg, 16 doses, day 10		tumour volume	189 mm3

SMILES	target or system	assay	test system	setting	how to read	measurement	result
C[C@@H](Nc1c(-c2c(F)cc(C#N)cc2F)c(Cl)nc2ncnn12)C(C)(C)C		item: detyrosinated tubulin	wild-type mice, brain	intraperitoneal, 1 mg/kg, after last dose		duration of effect	3 days
CCCCCCCCCCCCCCCC(=O)OCC(CSC[C@H](N)C(=O)N[C@@H](CO)C(=O)N[C@@H](CCCCN)C(=O)N[C@@H](CCCCN)C(=O)N[C@@H](CCCCN)C(=O)N[C@@H](CCCCN)C(=O)NCCCCCC(=O)N[C@@H](CCCCN)C(=O)N[C@@H](CC(C)C)C(=O)N[C@H](C(=O)N[C@@H](Cc1ccccc1)C(=O)N[C@@H](Cc1ccccc1)C(=O)N[C@@H](Cc1ccc2ccccc2c1)C(=O)O)C(C)C)OC(=O)CCCCCCCCCCCCCCC (some centres unmarked)		OC antibody staining	APP/PS1 transgenic mouse, cortex	intracortical injection, dose not given, 5 d		OC+ TS- area	8.54% and 15.4% and 6.08% and 7.31%
COc1cc(O)ccc1CCC(c1ccc(O)cc1)c1cc2c(c(C)c1O)OC(c1ccc(O)cc1)CC2 (mixture of isomers)		item: RvE3	human whole blood	0.3 µM, together with: Escherichia coli		amount	38 pg/mL blood
Cc1cnc2nc1Nc1cccc(c1)COC/C=C/COCc1cc(ccc1OCCN1CCOCC1)N2			BALB/c mice rhEPO-induced polycythemia	75 mg/kg		spleen weight	0.165 g and 0.164 g and 0.139 g and 0.135 g and 0.166 g and 0.19 g
COc1ccc(S(=O)(=O)N2CCc3ccccc3C2)cc1N1CCN(C(=O)c2ccc(F)cc2C(F)(F)F)CC1		CNN cell counting, item: tyrosine hydroxylase	rat, 6-OHDA lesion model, substantia nigra pars compacta, lesioned side	0.3 µg/24 h		TH-immunoreactive cell count	193 ± 42.5
COC1OC(C)C(OS(=O)(=O)O)C(OC2OC(C)C(OS(=O)(=O)O)C(OC3OC(C)C(OS(=O)(=O)O)C(OC4OC(C)C(OS(=O)(=O)O)C(OC5OC(C)C(OS(=O)(=O)O)C(OC6OC(C)C(OS(=O)(=O)O)C(OS(=O)(=O)O)C6O)C5O)C4O)C3O)C2O)C1O (centres unmarked)			human plasma	128 µg/mL	relative to: control	APTT prolongation	1.2 fold
CCC(=O)N[C@@H](C)C(=O)OCC(=O)N[C@@H](C)C(=O)O			water	pH 4, 25 °C		chain scission rate constant	0.0004 h⁻¹
COc1cc2c(NC3CCN(C(C)C)CC3)cc(N3CCOCC3)nc2cc1OCCCN1CCCC1		TMT proteomics, item: PGAM1	5xFAD mice, hippocampus	dose not given	relative to: wild-type mice	log2 fold change	-0.0339
O=C(Nc1ccon1)C12CC3CC(C1)CC(n1cnc([N+](=O)[O-])n1)(C3)C2	Trypanosoma cruzi	reporter mRNA translation, inhibitor, item: Renilla luciferase mRNA	cell-free extract	concentration not given, test 2	relative to: positive over negative control	translation activity	111%
COC1OC(C)C(OC2OC(C)C(OS(=O)(=O)O)C(OC3OC(C)C(OC4OC(C)C(OS(=O)(=O)O)C(OC5OC(C)C(OC6OC(C)C(OS(=O)(=O)O)C(OC7OC(C)C(OC8OC(C)C(OS(=O)(=O)O)C(OC9OC(C)C(OC%10OC(C)C(OS(=O)(=O)O)C(OC%11OC(C)C(OC%12OC(C)C(OS(=O)(=O)O)C(OS(=O)(=O)O)C%12O)C(OS(=O)(=O)O)C%11O)C%10O)C(OS(=O)(=O)O)C9O)C8O)C(OS(=O)(=O)O)C7O)C6O)C(OS(=O)(=O)O)C5O)C4O)C(OS(=O)(=O)O)C3O)C2O)C(OS(=O)(=O)O)C1O (centres unmarked)			human plasma	128 µg/mL	relative to: control	APTT prolongation	1.5 fold
CN1CCC[C@]1(C)/C=C/S(=O)(=O)NC(=O)Nc1c2c(cc3c1CCC3)CCC2			human, whole blood ex vivo	400 mg single dose, 3 h, single ascending dose, together with: LPS and ATP		IL-18 inhibition	84.1%
O=C(N[C@@H](Cc1ccc(OCCCCC2CCNCC2)cc1)C(=O)O)c1nc2ccccc2o1.O=C(O)C(F)(F)F			human, platelet-rich plasma	50 µM, together with: thrombin		clot retraction velocity	0.00488 min⁻¹ and 0.00398 min⁻¹ and 0.007 min⁻¹
CC(C)NCC(SS(=O)(=O)O)c1ccccc1 (centres unmarked)			Swiss Webster mice, Schistosoma mansoni infected	100 mg/kg	relative to: vehicle control	spleen weight decrease	35%
Nc1nc2cnc(C(=O)N3CCOC[C@@H]3c3ccc(C(F)(F)F)cc3)cc2c2c1COC2		ELISA, item: SDMA	mouse, HCT-116 MTAP wild type xenograft, tumour	oral, 10 mg/kg once daily	relative to: vehicle	inhibition	27%
Oc1cc2c(cc1O)C(c1cccc3ccccc13)NCC2 (centres unmarked)		ferrozine	cell-free	100 µM, DMSO solvent		Fe2+ chelation	96.04 ± 0.24%
COCCOCCOCCNC(=O)Cc1cc(CC(=O)N[C@H]2C[C@H]3C(=O)Nc4cc(OCCOCCOCCOC)cc(n4)C(=O)N4CCC[C@H]4C(=O)Nc4cc(OCCOCCOCCOC)cc(n4)C(=O)N4CCC[C@H]4C(=O)Nc4cc(OCCOCCOCCOC)cc(n4)C(=O)N3C2)cc(CC(=O)N[C@H]2C[C@H]3C(=O)Nc4cc(OCCOCCOCCOC)cc(n4)C(=O)N4CCC[C@H]4C(=O)Nc4cc(OCCOCCOCCOC)cc(n4)C(=O)N4CCC[C@H]4C(=O)Nc4cc(OCCOCCOCCOC)cc(n4)C(=O)N3C2)c1		anion binding, ITC	water	298 K, stoichiometry fixed at 1.00, together with: sodium chloride		ΔG	-12.3 ± 0.6 kJ mol^–1
N[C@@H](CNC(=O)N[C@@H](CS)C(=O)NCC(=O)O)C(=O)O			mouse C57BL/6, brain	intranasal, dose not given	relative to: saline i.c.v.	GFAP immunoreactivity	decreased

Some of these lines once more:
SMILES	target or system	assay	test system	setting	how to read	measurement	result
CC(CCC(=O)NCc1ccc(C(=O)NO)cc1)C1CCC2C3C(O)CC4CC(O)CCC4(C)C3CCC12C (centres unmarked)		item: GUDCA	PCK rat (Pkhd1 mutant), bile	oral gavage, dose not given, 5 months	relative to: total bile acids	relative abundance	2.18%
COC1OC(C)C(OS(=O)(=O)O)C(OC2OC(C)C(OS(=O)(=O)O)C(OC3OC(C)C(OS(=O)(=O)O)C(OC4OC(C)C(OS(=O)(=O)O)C(OC5OC(C)C(OS(=O)(=O)O)C(OC6OC(C)C(OS(=O)(=O)O)C(OS(=O)(=O)O)C6O)C5O)C4O)C3O)C2O)C1O (centres unmarked)			human plasma	128 µg/mL	relative to: control	APTT prolongation	1.2 fold
COC1OC(C)C(OC2OC(C)C(OS(=O)(=O)O)C(OC3OC(C)C(OC4OC(C)C(OS(=O)(=O)O)C(OC5OC(C)C(OC6OC(C)C(OS(=O)(=O)O)C(OC7OC(C)C(OC8OC(C)C(OS(=O)(=O)O)C(OC9OC(C)C(OC%10OC(C)C(OS(=O)(=O)O)C(OC%11OC(C)C(OC%12OC(C)C(OS(=O)(=O)O)C(OS(=O)(=O)O)C%12O)C(OS(=O)(=O)O)C%11O)C%10O)C(OS(=O)(=O)O)C9O)C8O)C(OS(=O)(=O)O)C7O)C6O)C(OS(=O)(=O)O)C5O)C4O)C(OS(=O)(=O)O)C3O)C2O)C(OS(=O)(=O)O)C1O (centres unmarked)			human plasma	128 µg/mL	relative to: control	APTT prolongation	1.5 fold
COC1CN([C@H]2CC[C@H]([C@@]3(C)Oc4c(Cl)cc(C(=O)NCc5c(SC)cc(C)[nH]c5=O)c(C)c4O3)CC2)C1		RNA-seq, item: CHST2	human, whole blood	dose not given, 24 h	relative to: pretreatment baseline	log2 fold change	1.66
COC1OC(C)C(OS(=O)(=O)O)C(OC2OC(C)C(OS(=O)(=O)O)C(OC3OC(C)C(OS(=O)(=O)O)C(OC4OC(C)C(OS(=O)(=O)O)C(OC5OC(C)C(OS(=O)(=O)O)C(OC6OC(C)C(OS(=O)(=O)O)C(OC7OC(C)C(OS(=O)(=O)O)C(OC8OC(C)C(OS(=O)(=O)O)C(OC9OC(C)C(OS(=O)(=O)O)C(OC%10OC(C)C(OS(=O)(=O)O)C(OS(=O)(=O)O)C%10O)C9O)C8O)C7O)C6O)C5O)C4O)C3O)C2O)C1O (centres unmarked)			human plasma	128 µg/mL	relative to: control	APTT prolongation	1.3 fold
